Measurements pooled from the literature.
A part holds a random share of what one study measured. Substitutions count along the parent as printed.

Study 1
Target: RNA binding protein fox-1 homolog 2, RRM domain, GST-SBP tag (RBFOX2, Homo sapiens, UniProt O43251-10, residues 100-194)
Technique: RNA Bind-n-Seq
Molecule type: RNA
Medium: in vitro
Tested at: 365 nM
Notes: natural RNA segment, single round, ends assumed
Reference: no-protein control
Reading: higher = stronger binding
Residues (chain): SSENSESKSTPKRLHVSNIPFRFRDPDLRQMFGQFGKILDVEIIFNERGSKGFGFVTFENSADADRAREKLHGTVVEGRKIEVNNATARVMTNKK
Oligonucleotide | RBNS enrichment (R)
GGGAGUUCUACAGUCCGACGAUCCUUGUCCGUUCGUCUUACCAUCUAACCAAACAAAAGACAAAGAAAUUGUUGUCCUCCAACUCAGCUUUUUUUUUUUUUUUUUCCUGUUUGGGUGAAAGUGGUUCUAGAAAUGGAAUUCUCGGGUGCCAA | 0.323
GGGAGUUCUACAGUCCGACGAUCCAAUUUUGUAGGAUUACAAAAAAGCCAUUAAUAUGCCAGUCAAGACUACAGUUAAAACUACUCUUGCACUGCAACAGUGCAUAUGACCUUUAUGUGAUUGUACAGUAUUAUGGAAUUCUCGGGUGCCAA | 0.286
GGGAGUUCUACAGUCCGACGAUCUUUUACCUUUGUUCCUUUUGCUCUGAUAGACAAAAUCAGUUUAGGACUAUUAAAGAAUGUUUUGGAAUAAACUGUCUUUUUCCUCAAUGAAUGGGAUGUCUAAUGUAUUUUGGAAUUCUCGGGUGCCAA | 0.997
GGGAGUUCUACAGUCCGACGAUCGGUCUUAAUGUAGCUACUGUGCGGGUCACAGUUUCUCCCAAUGAUUAUGACUGGGACAUUCUUUGGUAGAUACCAUUUGCUACUAGUUUAUUUUGUGGCUAGAAAGUCAGUGGAAUUCUCGGGUGCCAA | 1.17
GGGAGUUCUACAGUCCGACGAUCUUGUUCUUCCACCCACCCUCUCUUUUUCUUUUUCUUUCAAGACAGGGAUUCUACGUGUAGCCCUGGCUGACCUAGAAUUAGCUCUGAAGACCAGGCUGACCUUGAACUUAUGGAAUUCUCGGGUGCCAA | 0.252
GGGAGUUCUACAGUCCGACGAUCGUGCCUCUCUGUAUCCUAUGGAAAGCAGCCCCAUGCUUUCUGCUCCCCUCUGCACUCUCUCACAGGGACAAACUUGCAGAUACAUCCGAUAGGGUCUUGGCUUUCUACUGUGGAAUUCUCGGGUGCCAA | 0.501
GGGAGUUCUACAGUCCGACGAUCCCCACAGGACUUACCCCUGUAUGUACAGGAUUUUUGUAUGAAAGUUUUGUUUGAUUCUGAGACUCUCUUGGGAACGCUGGAGAGCUUGUGCACAGCCUCUGGAAGGAAAGUGGAAUUCUCGGGUGCCAA | 0.837
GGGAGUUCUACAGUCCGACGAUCCUCCCCUUCCCCUUUCCUGCCCCAAGGCAGAUCCACAUCACCGAAGCUCCCUAGAGGGGCAAAAGAUGGAGUGAGCCACAGGAAGUUUGGGGCGUGGUGAGUUGGAAUGAUGGAAUUCUCGGGUGCCAA | 0.279

Study 2
Target: Histone acetyltransferase KAT6A, winged helix 2, GST fusion (KAT6A, Homo sapiens, UniProt Q92794, residues 85-181)
Technique: protein binding microarray
Molecule type: double-stranded DNA, one strand shown
Medium: in vitro
Tested at: not given
Notes: 8-mer, flanks averaged, mean of 2 arrays, mostly near background
Reference: not given
Reading: higher = stronger binding
Target sequence (chain): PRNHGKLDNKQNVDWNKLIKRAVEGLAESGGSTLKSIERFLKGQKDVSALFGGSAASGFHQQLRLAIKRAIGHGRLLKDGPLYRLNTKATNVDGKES
Oligonucleotide | E-score
AGTCGAAT | -0.0292
ACTAGGTC | 0.0526
ATGCGCGG | 0.117
GCGAATCA | 0.112
AAAACTCA | 0.152
CCTTTCTA | -0.0832
ATCCAGGG | 0.0191
GAGATAGA | 0.0323
CGTCTAAC | -0.0819
AGGGAACA | -0.0822
AGAGTGGA | -0.0919
GCATAATA | 0.0251
AGCGCTAC | -0.0351
AATTCAAG | -0.0233
CTGTGAAG | 0.0281
GGACCGAA | 0.184
CACTGTTA | -0.186
ATACACAG | -0.147
TACACCTA | -0.107
CGAGGCCC | 0.0704
CAGGCCGA | 0.136
GGCCCGAC | 0.0735
CCTACAAA | 0.0748
AAACCCGT | -0.188
GTACTGGA | -0.104

Study 3
Target: Interferon regulatory factor 5, full length, phosphomimetic (IRF5, Homo sapiens, UniProt Q13568-2, residues 1-514, K96S/S451D/S453D/S456D/S462D)
Technique: protein-binding microarray
Molecule type: double-stranded DNA, one strand shown
Medium: in vitro
Tested at: 250 nM
Notes: 60-bp whole probe
With: salmon DNA 0.4 mg/ml
Reference: random background probes
Reading: higher = stronger binding
Shared flanks, not repeated: GCCTAGCAC … GTCTTGATTCGCTTGACGCTGCTG
Oligonucleotide | log fluorescence [z-score]
TTAGATATCGGGTTTCGATTCGTGCTA | 7.1
TCGCACACATACGGCTTCTCGTGCTAG | 0.0426
TTAGGACTGGTACTGGGTTAGTGCTAG | -0.667
CACGATATCGGGACTGGAGACGTGCTA | 0.574
TACTTTCTGAATGCTCCCCCTGTGCTA | 4.35
GACGTTCTCAGACTGGAGACGTGCTAG | -0.0422
TACGATATCAGTCTCGAGACGTGCTAG | 1.38
GACGGTATCCTACTGCGGACGTGCTAG | -0.111
TCATGTTTGGTCCTGAAACTGTGCTAG | 0.297
GACGGACTGTGTTTCGGGACGTGCTAG | 2.17
GACGGTTTCGACTTTCGGCACGTGCTA | 8.16
TTAGATCTCAGACTGGAGTAGTGCTAG | -0.345
TTAGGTATCGACTATCGCTTAGTGCTA | 5.47
GTCGGTTTCCTACTGCTGACGTGCTAG | 0.745
TTCATTATTGTTTCCTCTTTGTGCTAG | 1.57
TCAACTAGGAGTTTTCAGACTGTGCTA | 0.181
GTCGGTATCGACTATCGGGACGTGCTA | 4.93

Study 4
Target: Sal-like protein 4, full length isoform B (SALL4, Homo sapiens, UniProt Q9UJQ4-2, residues 1-616)
Technique: universal PBM
Molecule type: double-stranded DNA, one strand shown
Medium: in vitro
Tested at: not given
Notes: 8-mer, flanks averaged, mean of replicates
Reading: higher = stronger binding
Oligonucleotide | E-score
CCACGTAG | -0.316
AGATGCAA | 0.0914
GTCAGAAA | 0.116
CATCCCGA | -0.0708
CTAGAAAA | 0.202
AGTAACAC | 0.0863
AACTTAGG | -0.0295
TGCTTGAA | 0.112
ATCACCAA | 0.126
AAACCCCA | 0.0603
ATATGCCC | 0.0551
GCCTCAGA | -0.179
AGCCCCGA | -0.23
GCTAGAGA | -0.107
AGCACTTG | -0.281
CGCCATAC | 0.0605
AAACCGGT | -0.173
CCAGACCC | -0.319
ACCGCGAC | -0.188
CTACCTCA | -0.221
CGGGGGAA | -0.204
GCTCGTAA | 0.0312
GCCTCAAC | 0.0264
ACCATCAC | 0.0102
AGCGACGG | -0.275

Study 5
Target: CCNB1, cyclin fold, Cln2 fusion (human)
Technique: yeast growth competition, sequencing
Medium: yeast
Notes: weak parent motif
Reference: not given
Reading: higher = stronger binding
Starting sequence: ANKRD17 docking peptide (human); PSVRRQLFVTVVK
Variant | normalised enrichment score
PSVRRQLFVTAVK [V11A] | 1.35
PSVRRQLFVTVVA [K13A] | 0.882
PSVRRALFVTVVK [Q6A] | -0.0764
ASVRRQLFVTVVK [P1A] | 1.09
PSARRQLFVTVVK [V3A] | 0.561
PSVRAQLFVTVVK [R5A] | 1.68
PSVRKQLLVTVVK [R5K F8L] | 0.509

A few entries again (study 2):
Oligonucleotide | E-score
CGTCTAAC | -0.0819
AGGGAACA | -0.0822
AGAGTGGA | -0.0919
GCATAATA | 0.0251
